Results of several laboratories.
A part holds a random share of what one study measured.
Sequence of UniProt Q9UHD2 (whole entry, looked up): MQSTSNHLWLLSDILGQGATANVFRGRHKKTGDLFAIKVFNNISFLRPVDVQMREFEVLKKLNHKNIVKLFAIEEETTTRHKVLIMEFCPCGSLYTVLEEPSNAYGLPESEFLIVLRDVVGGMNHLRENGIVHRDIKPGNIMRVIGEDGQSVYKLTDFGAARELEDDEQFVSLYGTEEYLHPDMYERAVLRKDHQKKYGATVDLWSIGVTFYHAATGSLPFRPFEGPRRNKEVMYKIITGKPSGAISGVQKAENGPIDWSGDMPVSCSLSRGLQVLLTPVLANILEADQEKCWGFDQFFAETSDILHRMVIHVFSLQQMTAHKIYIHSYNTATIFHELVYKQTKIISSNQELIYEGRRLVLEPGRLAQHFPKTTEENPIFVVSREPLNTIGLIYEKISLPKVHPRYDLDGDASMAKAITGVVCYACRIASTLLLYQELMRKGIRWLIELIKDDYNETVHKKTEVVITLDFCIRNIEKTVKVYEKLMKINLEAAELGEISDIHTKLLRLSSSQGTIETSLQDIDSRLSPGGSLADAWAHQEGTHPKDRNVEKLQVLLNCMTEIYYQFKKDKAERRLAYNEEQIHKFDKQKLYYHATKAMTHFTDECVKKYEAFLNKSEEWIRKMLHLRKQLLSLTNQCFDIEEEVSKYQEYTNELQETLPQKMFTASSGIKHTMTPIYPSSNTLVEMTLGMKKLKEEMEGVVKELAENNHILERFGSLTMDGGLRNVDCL
Sequence of UniProt Q9HC98 (whole entry, looked up): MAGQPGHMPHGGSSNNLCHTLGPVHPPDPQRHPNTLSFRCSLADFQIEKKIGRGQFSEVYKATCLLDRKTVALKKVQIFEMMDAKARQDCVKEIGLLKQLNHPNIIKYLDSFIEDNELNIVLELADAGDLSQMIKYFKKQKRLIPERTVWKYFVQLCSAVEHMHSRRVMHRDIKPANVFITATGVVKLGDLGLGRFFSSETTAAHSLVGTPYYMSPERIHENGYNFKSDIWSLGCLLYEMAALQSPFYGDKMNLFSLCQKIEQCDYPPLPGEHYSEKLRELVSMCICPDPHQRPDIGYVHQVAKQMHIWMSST
Sequence of UniProt Q12866 (whole entry, looked up): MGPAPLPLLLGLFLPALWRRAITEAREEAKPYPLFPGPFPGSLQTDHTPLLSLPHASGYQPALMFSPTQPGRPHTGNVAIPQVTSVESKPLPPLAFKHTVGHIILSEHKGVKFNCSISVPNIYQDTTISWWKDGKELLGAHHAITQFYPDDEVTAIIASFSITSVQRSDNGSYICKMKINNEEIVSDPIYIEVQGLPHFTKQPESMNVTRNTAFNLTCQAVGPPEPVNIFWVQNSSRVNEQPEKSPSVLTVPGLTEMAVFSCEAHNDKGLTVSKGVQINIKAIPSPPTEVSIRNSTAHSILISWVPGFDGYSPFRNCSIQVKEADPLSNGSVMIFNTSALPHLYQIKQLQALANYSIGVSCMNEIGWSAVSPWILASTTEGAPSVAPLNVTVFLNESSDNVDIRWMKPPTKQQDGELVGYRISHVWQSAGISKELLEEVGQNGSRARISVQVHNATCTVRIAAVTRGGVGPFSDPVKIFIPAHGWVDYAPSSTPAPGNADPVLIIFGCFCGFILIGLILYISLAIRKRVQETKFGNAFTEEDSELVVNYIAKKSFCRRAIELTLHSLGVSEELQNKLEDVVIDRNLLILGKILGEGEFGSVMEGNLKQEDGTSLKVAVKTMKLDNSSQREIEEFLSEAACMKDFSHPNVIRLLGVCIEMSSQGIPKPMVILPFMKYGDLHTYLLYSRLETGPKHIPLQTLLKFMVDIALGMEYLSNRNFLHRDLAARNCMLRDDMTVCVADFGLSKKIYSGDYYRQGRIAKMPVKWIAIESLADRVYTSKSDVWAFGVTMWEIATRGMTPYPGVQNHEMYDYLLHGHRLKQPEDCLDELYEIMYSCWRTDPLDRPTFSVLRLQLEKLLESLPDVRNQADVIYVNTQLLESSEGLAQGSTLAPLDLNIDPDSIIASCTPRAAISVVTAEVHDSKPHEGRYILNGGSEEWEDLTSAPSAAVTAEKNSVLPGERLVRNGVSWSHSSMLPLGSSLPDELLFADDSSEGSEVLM
Sequence of UniProt Q99558 (whole entry, looked up): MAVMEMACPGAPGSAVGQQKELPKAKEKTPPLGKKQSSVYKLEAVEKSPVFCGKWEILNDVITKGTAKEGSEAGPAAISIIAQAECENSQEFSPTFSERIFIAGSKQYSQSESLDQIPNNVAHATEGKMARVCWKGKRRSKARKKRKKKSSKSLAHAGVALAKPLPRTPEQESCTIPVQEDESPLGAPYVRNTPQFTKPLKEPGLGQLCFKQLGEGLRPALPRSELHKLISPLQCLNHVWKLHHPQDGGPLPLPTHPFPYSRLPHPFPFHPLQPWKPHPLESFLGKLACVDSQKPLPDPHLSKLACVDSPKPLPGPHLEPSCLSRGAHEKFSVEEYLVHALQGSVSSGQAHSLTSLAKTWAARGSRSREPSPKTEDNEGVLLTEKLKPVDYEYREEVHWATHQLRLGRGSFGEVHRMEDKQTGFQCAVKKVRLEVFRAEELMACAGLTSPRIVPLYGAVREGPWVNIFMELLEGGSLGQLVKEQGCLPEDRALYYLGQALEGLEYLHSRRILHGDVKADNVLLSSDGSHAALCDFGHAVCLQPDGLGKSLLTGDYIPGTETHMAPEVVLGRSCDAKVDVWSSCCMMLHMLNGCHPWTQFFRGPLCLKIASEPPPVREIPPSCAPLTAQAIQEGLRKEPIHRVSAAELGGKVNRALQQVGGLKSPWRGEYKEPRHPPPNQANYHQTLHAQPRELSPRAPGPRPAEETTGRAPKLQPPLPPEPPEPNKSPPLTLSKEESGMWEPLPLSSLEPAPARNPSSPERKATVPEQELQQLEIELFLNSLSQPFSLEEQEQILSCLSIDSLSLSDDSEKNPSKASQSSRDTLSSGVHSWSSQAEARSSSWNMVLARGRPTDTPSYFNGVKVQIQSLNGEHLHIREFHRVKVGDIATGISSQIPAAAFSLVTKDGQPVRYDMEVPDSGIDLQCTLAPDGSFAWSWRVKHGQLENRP
Sequence of UniProt P17948 (whole entry, looked up): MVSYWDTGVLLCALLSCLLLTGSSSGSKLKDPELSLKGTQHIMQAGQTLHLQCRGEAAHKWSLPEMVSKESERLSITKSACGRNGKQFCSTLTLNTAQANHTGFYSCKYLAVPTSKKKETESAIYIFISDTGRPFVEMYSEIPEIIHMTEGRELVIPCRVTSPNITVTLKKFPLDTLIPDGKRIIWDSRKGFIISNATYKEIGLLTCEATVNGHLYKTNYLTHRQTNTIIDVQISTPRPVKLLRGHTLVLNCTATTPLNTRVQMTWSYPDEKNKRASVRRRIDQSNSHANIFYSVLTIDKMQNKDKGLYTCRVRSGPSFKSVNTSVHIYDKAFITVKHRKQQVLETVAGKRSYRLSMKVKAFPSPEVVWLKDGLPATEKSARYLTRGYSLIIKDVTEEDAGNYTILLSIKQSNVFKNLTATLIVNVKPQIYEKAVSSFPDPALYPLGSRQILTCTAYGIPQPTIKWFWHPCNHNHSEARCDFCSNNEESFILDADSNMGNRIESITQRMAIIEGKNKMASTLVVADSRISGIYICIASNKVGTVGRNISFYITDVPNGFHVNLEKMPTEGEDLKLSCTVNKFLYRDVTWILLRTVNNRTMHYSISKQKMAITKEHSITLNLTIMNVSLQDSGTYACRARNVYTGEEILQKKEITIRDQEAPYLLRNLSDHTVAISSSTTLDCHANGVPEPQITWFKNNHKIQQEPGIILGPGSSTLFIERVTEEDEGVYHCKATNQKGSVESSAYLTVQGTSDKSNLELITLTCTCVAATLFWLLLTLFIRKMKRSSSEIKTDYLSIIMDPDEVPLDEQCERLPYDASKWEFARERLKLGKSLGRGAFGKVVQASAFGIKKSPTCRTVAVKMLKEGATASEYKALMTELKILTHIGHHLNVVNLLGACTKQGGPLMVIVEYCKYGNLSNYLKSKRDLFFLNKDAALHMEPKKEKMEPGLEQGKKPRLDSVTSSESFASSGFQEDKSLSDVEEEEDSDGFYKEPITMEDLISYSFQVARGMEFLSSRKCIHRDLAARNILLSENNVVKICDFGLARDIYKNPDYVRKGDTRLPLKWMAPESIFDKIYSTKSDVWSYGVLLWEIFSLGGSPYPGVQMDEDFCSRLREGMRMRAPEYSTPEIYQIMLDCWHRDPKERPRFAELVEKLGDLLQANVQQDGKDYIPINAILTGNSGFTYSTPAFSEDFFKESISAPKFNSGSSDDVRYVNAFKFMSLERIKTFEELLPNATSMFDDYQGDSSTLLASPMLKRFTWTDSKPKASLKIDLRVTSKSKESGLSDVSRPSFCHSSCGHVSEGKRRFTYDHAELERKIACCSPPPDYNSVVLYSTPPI
Sequence of UniProt P06239 (whole entry, looked up): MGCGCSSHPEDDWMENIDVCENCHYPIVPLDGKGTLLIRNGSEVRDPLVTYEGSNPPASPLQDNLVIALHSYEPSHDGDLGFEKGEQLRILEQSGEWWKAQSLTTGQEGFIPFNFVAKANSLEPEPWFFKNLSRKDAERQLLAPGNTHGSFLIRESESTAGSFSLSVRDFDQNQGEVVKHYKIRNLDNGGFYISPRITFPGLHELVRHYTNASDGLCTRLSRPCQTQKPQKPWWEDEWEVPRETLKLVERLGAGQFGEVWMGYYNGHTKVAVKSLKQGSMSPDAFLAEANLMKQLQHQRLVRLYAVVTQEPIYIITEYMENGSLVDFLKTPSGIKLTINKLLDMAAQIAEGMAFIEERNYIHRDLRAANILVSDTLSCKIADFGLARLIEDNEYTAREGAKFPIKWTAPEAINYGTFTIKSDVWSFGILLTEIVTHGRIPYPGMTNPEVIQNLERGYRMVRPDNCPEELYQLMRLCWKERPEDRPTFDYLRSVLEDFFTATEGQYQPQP

Study 1
SMILES: O=C1Nc2ccc(Br)cc2/C1=C/c1cc2c([nH]1)CCCC2
Effect on: enzyme activity
Mode: inhibitor
Tested at: 0.5 µM
Relative to: control
Quantity: remaining activity
ULK2 (Homo sapiens, UniProt Q8IYT8): 114%
CSNK1G3 (Homo sapiens, UniProt Q9Y6M4): 103%
TAOK2 (Homo sapiens, UniProt Q9UL54): 89.4%
TBK1 (Homo sapiens, UniProt Q9UHD2): 66.9%
LCK (Homo sapiens, UniProt P06239): 84.5%
MAP3K5 (Homo sapiens, UniProt Q99683): 101%
MERTK (Homo sapiens, UniProt Q12866): 81.2%
EPHA3 (Homo sapiens, UniProt P29320): 94.6%
ACVR1B (Homo sapiens, UniProt P36896): 99%
FGFR3 (Homo sapiens, UniProt P22607): 55.8%
MST1R (Homo sapiens, UniProt Q04912): 88.3%
MAP3K14 (Homo sapiens, UniProt Q99558): 112%
RPS6KA2 (Homo sapiens, UniProt Q15349): 72%
FGFR1 (Homo sapiens, UniProt P11362): 76.7%
GSK3B (Homo sapiens, UniProt P49841): 94.1%

Study 2
SMILES: CNC(=O)Nc1ccc2c(c1)[C@@]1(CC2)OC(=O)N(CC(=O)N(Cc2ccc(F)cc2)[C@@H](C)C(F)(F)F)C1=O
Effect on: cell-free assay
Technique: competition with immobilised ligand
Tested at: 1 µM
Quantity: remaining binding
NEK6 (Homo sapiens, UniProt Q9HC98): 100%
FLT1 (Homo sapiens, UniProt P17948): 100%
EIF2AK2 (Homo sapiens, UniProt P19525): 100%
DDR2 (Homo sapiens, UniProt Q16832): 100%
Aurora kinase A (AURKA, Homo sapiens, UniProt O14965): 79%
SGK2 (Homo sapiens, UniProt Q9HBY8): 88%

Study 3
Target: Sal-like protein 4, full length isoform B (SALL4, Homo sapiens, UniProt Q9UJQ4-2, residues 1-616)
Technique: universal PBM
Form: double-stranded DNA, one strand shown
Matrix: in vitro
Tested at: not given
Notes: 8-mer, flanks averaged, mean of replicates
Reading: higher = stronger binding
Quantity: E-score
ACAAATTA: 0.294
CTTTGCTC: -0.114
GCGCAGCC: -0.356
AGAGAGCA: -0.18
AACTTGTC: 0.0942
CACAATCA: 0.0856
AATAGACC: 0.0017
ACCACGAT: 0.0616

Study 4
Host: human
Matrix: microsomes or S9
Tested at: 2 µM
Time: 0.5 h
Quantity: remaining compound
COc1cc(=O)n2c(c1C(=O)Nc1cccc3c1CCCC3)CCCC2: 21.1%
Cc1ccc2oc(=O)c(/C=C(\O)CC(C)C)nc2c1: 67.9%
Nc1nc(N(Cc2ccco2)Cc2ccco2)c2[nH]cnc2n1: > 100%
